Published values pooled from the literature.
Lines come from different studies, so protocols differ. Numbers after ± are the reported error.
Cell line: HeLa

SMILES = COc1ccc([N+]#[C][Re]2(=[C]=O)(=[C]=O)(=[C]=O)[N]3C(C)=CC=c4ccc5c(c43)[N]2C(C)=CC=5)cc1.O=S(=O)([O-])C(F)(F)F; assay = cell growth or viability, MTT; conditions = 48 h; IC50 = 5 µM
SMILES = CC1=C(I)C(C)=[N+]2C1=C(c1ccc(OCCn3cc(CNC(=O)CSC[C@H](NC(=O)c4ccc(-c5nnc(C)nn5)cc4)C(=O)N[C@@H](CC4CCCCC4)C(=O)N[C@H](CCCNC(=N)N)C(=O)N[C@@H](CC4CCCCC4)C(=O)N[C@H](CCCNC(=N)N)C(=O)N[C@@H](CC4CCCCC4)C(=O)N[C@H](CCCNC(=N)N)C(N)=O)nn3)cc1)c1c(C)c(I)c(C)n1[B-]2(F)F; assay = phototoxicity; conditions = 2 h plus 18 h, 2.5% FBS, with: irradiation 525 nm for 160 s; IC50 = 0.599 ± 0.043 µM
SMILES = O=C(O)c1ccccc1-c1c2ccc(=O)cc-2oc2cc(O)ccc12; assay = cell growth or viability, resazurin; conditions = 24 h; IC50 = > 100 µM
SMILES = CCCCCCCCc1ccc(C(=O)N[C@@H](CO)C(=O)N[C@H](C(=O)N[C@@H](C)C(=O)N[C@H](C(N)=O)[C@@H](C)CC)[C@@H](C)OP(=O)(O)O)cc1; assay = cell growth or viability, MTT; conditions = 72 h; IC50 = 38.9 µM
SMILES = CC[C@H](C)[C@H](NC(=O)[C@H](CCCCN)NC(=O)[C@H](CCCCN)NC(=O)[C@H](C)NC(=O)[C@H](CC(C)C)NC(=O)[C@H](C)NC(=O)[C@H](C)NC(=O)[C@H](CC(C)C)NC(=O)[C@H](C)NC(=O)[C@H](CCCCN)NC(=O)[C@H](CC(C)C)NC(=O)[C@H](CC(N)=O)NC(=O)[C@@H](NC(=O)[C@H](CCCCN)NC(=O)CNC(=O)[C@H](CC(C)C)NC(=O)[C@H](CC(C)C)NC(=O)[C@H](Cc1ccc(O)cc1)NC(=O)CNC(=O)[C@H](C)NC(=O)[C@H](CO)NC(=O)[C@H](CC(N)=O)NC(=O)[C@H](CC(C)C)NC(=O)[C@@H](NC(=O)[C@H](Cc1c[nH]c2ccccc12)NC(=O)CN)[C@@H](C)O)[C@@H](C)CC)C(=O)N[C@@H](CC(C)C)C(N)=O; assay = cytotoxicity; IC50 = 1.3 µM
SMILES = COc1ccc(C(c2c(C)nn(-c3ccccc3)c2O)c2c(C)nn(-c3ccccc3)c2O)cc1; assay = cell growth or viability, MTT; conditions = 48 h; IC50 = 19.2 µM
SMILES = O=C(Cc1ccc2ccccc2c1)N[C@H](Cc1ccc(O)cc1)C(=O)N[C@H](Cc1ccccc1)C(=O)N[C@H](Cc1ccccc1)C(=O)N[C@H](Cc1ccc(OP(=O)(O)O)cc1)C(=O)O; assay = cell growth or viability, MTT; IC50 = 301 µg/mL
SMILES = COc1cc(C(c2c(C)nn(-c3ccccc3)c2O)c2c(C)nn(-c3ccccc3)c2O)cc(OC)c1OC; assay = cell growth or viability, MTT; conditions = 48 h; IC50 = 22.9 µM
SMILES = CC(C)C[C@H](NC(=O)[C@H](CCCCN)NC(=O)[C@H](CC(C)C)NC(=O)[C@H](CC(C)C)NC(=O)[C@H](CCCCN)NC(=O)[C@H](CCCCN)NC(=O)[C@H](CC(C)C)NC(=O)[C@H](CC(C)C)NC(=O)[C@H](CCCCN)NC(=O)[C@H](CC(C)C)NC(=O)[C@H](CC(C)C)NC(=O)[C@H](CCCCN)NC(=O)[C@H](CCCCN)NC(=O)[C@H](CC(C)C)NC(=O)[C@@H](N)CSSC[C@H](N)C(=O)N[C@@H](CC(C)C)C(=O)N[C@@H](CCC(=O)O)C(=O)N[C@@H](Cc1c[nH]cn1)C(=O)N[C@@H](CC(C)C)C(=O)N[C@@H](CC(C)C)C(=O)N[C@@H](CCC(=O)O)C(=O)N[C@@H](Cc1c[nH]cn1)C(=O)N[C@@H](CC(C)C)C(=O)N[C@@H](CCC(=O)O)C(=O)N[C@@H](Cc1c[nH]cn1)C(=O)N[C@@H](CC(C)C)C(=O)N[C@@H](CC(C)C)C(=O)N[C@@H](CCC(=O)O)C(=O)N[C@@H](Cc1c[nH]cn1)C(N)=O)C(N)=O; assay = cell growth or viability, MTT; conditions = pH 6; IC50 = 12.9 µM
SMILES = CO[C@@H]1[C@@H](O)[C@H](O[C@H]2CC[C@@]3(C)[C@H](CC[C@@H]4[C@@H]3CC[C@]3(C)[C@@H](C5=CC(=O)OC5)[C@@H](O)C[C@]43O)C2)O[C@H](C)[C@@H]1O[C@@H]1O[C@H](CO)[C@@H](O)[C@H](O)[C@H]1O; assay = cell growth or viability, MTT; conditions = 48 h; IC50 = 0.6 µM
SMILES = CC(C)C[C@H](NC(=O)[C@H](CC(C)C)NC(=O)[C@H](CCC(=O)O)NC(=O)[C@H](Cc1c[nH]cn1)NC(=O)[C@H](CC(C)C)NC(=O)[C@H](Cc1c[nH]cn1)NC(=O)[C@H](CCC(=O)O)NC(=O)[C@H](CC(C)C)NC(=O)[C@H](CC(C)C)NC(=O)[C@H](CCC(=O)O)NC(=O)[C@H](Cc1c[nH]cn1)NC(=O)[C@@H](N)CC(C)C)C(=O)N[C@@H](CCC(=O)O)C(=O)N[C@@H](Cc1c[nH]cn1)C(N)=O; assay = cell growth or viability, MTT; conditions = pH 6; IC50 = > 100 µM
SMILES = O=C(Cc1ccc2ccccc2c1)N[C@H](Cc1ccc(OP(=O)(O)O)cc1)C(=O)N[C@H](Cc1ccccc1)C(=O)N[C@H](Cc1ccccc1)C(=O)N[C@H](Cc1ccc(OP(=O)(O)O)cc1)C(=O)O; assay = cell growth or viability, MTT; IC50 = > 483 µg/mL
SMILES = COC(=O)[C@@H](NC(=O)[C@@H](NC(=O)[C@@H](NC(=O)[C@@H]1CCCN1C(=O)[C@H](C)NC(=O)OC(C)(C)C)C(C)C)C(C)C)C(C)C; assay = cell growth or viability, SRB; IC50 = 4 µM
SMILES = C[C@H]1[C@H](OCCc2ccc(O)cc2)O[C@@H]2O[C@@]3(C)CC[C@H]4[C@H](C)CC[C@@H]1[C@@]24OO3; assay = cell growth or viability, MTT; IC50 = 2.73 µM
SMILES = CC(C)C[C@H](NC(=O)[C@H](CC(C)C)NC(=O)[C@H](CCC(=O)O)NC(=O)[C@H](CCC(=O)O)NC(=O)[C@H](CC(C)C)NC(=O)[C@H](Cc1c[nH]cn1)NC(=O)[C@H](Cc1c[nH]cn1)NC(=O)[C@H](CC(C)C)NC(=O)[C@H](CC(C)C)NC(=O)[C@H](CCC(=O)O)NC(=O)[C@H](CCC(=O)O)NC(=O)[C@@H](N)CC(C)C)C(=O)N[C@@H](Cc1c[nH]cn1)C(=O)N[C@@H](Cc1c[nH]cn1)C(N)=O; assay = cell growth or viability, MTT; conditions = pH 6; IC50 = > 100 µM
SMILES = COc1ccc(C(c2c(C)nn(-c3ccccc3)c2O)c2c(C)nn(-c3ccccc3)c2O)cc1OC; assay = cell growth or viability, MTT; conditions = 48 h; IC50 = 18.6 µM
SMILES = COCCOCCOCCOCCOCCOCCOCCOCCC(=O)N1CCC[C@H]1C(=O)N[C@@H](CC(C)C)C(=O)N[C@@H](Cc1cncn1CCCCCCCCc1ccccc1)C(=O)N[C@@H](CO)C(=O)N[C@H](C(N)=O)[C@@H](C)CP(=O)(O)O; assay = cell proliferation; conditions = synchronised by thymidine block; IC50 = 380 µM

Some of these lines once more:
SMILES = COC(=O)[C@@H](NC(=O)[C@@H](NC(=O)[C@@H](NC(=O)[C@@H]1CCCN1C(=O)[C@H](C)NC(=O)OC(C)(C)C)C(C)C)C(C)C)C(C)C; assay = cell growth or viability, SRB; IC50 = 4 µM
SMILES = C[C@H]1[C@H](OCCc2ccc(O)cc2)O[C@@H]2O[C@@]3(C)CC[C@H]4[C@H](C)CC[C@@H]1[C@@]24OO3; assay = cell growth or viability, MTT; IC50 = 2.73 µM
